# Measured values pooled from the literature.
# A part holds a random share of what one study measured. Substitutions count along the parent as printed.

# Series 1
# Target: ABI1, truncated, D143A, DHFR fusion (Arabidopsis thaliana)
# Technique: DHFR PCA, deep sequencing
# Matrix: yeast
# Notes: methotrexate growth selection, single substitutions
# With: (+)-ABA 1.4 µM
# Relative to: wild-type fitted maximum
# Reading: higher = stronger binding
# Starting sequence: PYL1, truncated, DHFR fusion (Arabidopsis thaliana); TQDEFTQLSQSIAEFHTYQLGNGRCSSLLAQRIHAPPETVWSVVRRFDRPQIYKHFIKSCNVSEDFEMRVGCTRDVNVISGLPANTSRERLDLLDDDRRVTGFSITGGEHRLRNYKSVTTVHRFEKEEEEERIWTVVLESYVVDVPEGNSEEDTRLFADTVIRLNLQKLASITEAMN; partner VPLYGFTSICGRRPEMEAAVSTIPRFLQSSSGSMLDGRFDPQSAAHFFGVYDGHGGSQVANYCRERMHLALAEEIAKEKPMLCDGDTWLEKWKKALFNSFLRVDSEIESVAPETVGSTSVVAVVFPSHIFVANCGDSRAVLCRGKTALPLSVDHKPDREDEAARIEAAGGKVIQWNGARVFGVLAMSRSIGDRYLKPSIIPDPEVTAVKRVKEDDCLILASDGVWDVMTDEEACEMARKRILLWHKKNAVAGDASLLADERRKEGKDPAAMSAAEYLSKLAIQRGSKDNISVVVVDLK
Variant,relative binding score [%]
Q2P,70.8
V43Q,-8.3
C72M,54.2
W41E,-16.9
V136T,22.1
T101I,73
L169D,5.61
G23S,27.1
T86V,36.1
V40D,-12.8
F15K,-4.51
L29S,2.27
V143D,2.42
S117A,24
I33W,16.2
L169E,-6.84

# Series 2
# Organism: Saccharomyces cerevisiae
# Read-out: binding
# Technique: yeast competitive growth sequencing
# Form: peptide
# Strain: cyclin A1-Cln2 strain
# Matrix: peptide tiling library
# Notes: pooled screen
# Reading: direction not given
Sequence,enrichment score
RQVRRDLFAF,-1.15
NEGVSNAVRRSLYIRD,-0.479
AKRSLGFLPQPVPL,-0.229
RTEALEQGGLPKKLIF,-1.13
AEHPKPSACRNLFGPV,-0.206
GTPKRCLDLSNLSSGE,0.274
SPPRGRRLFPPGPAGF,-0.361
QNPCGSKACRRLFGPV,-2.06
HPESPPRKRLKSKGSD,4.48
YLYLLLTQSLWCRV,-1.57
QYQVVDDIVSKLVFDF,0.284
EPRNLLSLFEDTLDPT,1.45

# Series 3
# Target: Histone acetyltransferase KAT6A, winged helix 2, GST fusion (KAT6A, Homo sapiens, UniProt Q92794, residues 85-181)
# Technique: protein binding microarray
# Form: double-stranded DNA, one strand shown
# Matrix: in vitro
# Tested at: not given
# Notes: 8-mer, flanks averaged, mean of 2 arrays, mostly near background
# Relative to: not given
# Reading: higher = stronger binding
# Target sequence (chain): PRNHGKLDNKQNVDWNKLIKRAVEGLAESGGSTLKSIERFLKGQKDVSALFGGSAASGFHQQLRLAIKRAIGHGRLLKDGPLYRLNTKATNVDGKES
Oligonucleotide,E-score
CCGACTGC,-0.0322
CATAATCG,-0.0596
ACAGATGA,-0.172
CAAACAAG,0.0323
ATATACGA,-0.0434
AACAGATT,-0.198
GAGGCGAA,0.201
TGGCCTAA,-0.123
TTGGGAAA,0.169
CCAGGCAA,0.141
ATGTTCTC,0.0669
TATACATA,-0.136
CACAATAG,-0.0226
AAAGGCAC,0.0861
ACATCGGA,-0.0169
ACAGATCT,-0.0983

# Series 4
# Target: Interferon regulatory factor 7, full length, phosphomimetic (IRF7, Homo sapiens, UniProt Q92985, residues 1-503, S101K/S471D/S472D/S475D/S476D/S477D/S483D/S484D/S487D)
# Technique: protein-binding microarray
# Form: double-stranded DNA, one strand shown
# Matrix: in vitro
# Tested at: 250 nM
# Notes: 60-bp whole probe
# With: salmon DNA 0.4 mg/ml
# Relative to: random background probes
# Reading: higher = stronger binding
# All sequences stand within: GCCTAGCAC … GTCTTGATTCGCTTGACGCTGCTG
# Construct (chain): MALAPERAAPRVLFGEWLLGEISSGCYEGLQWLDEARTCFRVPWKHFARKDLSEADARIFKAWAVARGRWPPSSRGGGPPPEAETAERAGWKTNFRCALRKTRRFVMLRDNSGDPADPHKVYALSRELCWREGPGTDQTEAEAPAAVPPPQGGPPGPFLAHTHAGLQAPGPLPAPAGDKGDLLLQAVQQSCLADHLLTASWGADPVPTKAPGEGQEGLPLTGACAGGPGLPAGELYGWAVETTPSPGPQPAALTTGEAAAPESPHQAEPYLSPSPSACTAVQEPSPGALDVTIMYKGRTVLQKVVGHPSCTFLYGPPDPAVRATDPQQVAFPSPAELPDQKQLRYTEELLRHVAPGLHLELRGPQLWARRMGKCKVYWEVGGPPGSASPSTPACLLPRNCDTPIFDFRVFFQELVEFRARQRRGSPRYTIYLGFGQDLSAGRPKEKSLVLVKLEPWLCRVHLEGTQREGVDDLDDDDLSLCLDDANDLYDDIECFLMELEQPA
Oligonucleotide,log fluorescence [z-score]
ACCACTCTTCCTTTACTTTCGTGCTAG,0.71
GACGGTATCGGGTATCCGGACGTGCTA,0.116
AACAGGAGCAGATGGGAAGTGTGCTAG,-0.563
TTAGATCTTAGTTTCGATTAGTGCTAG,9.56
TCATATATATCATTTAAACTGTGCTAG,0.726
TTAGATTTCAGTTCCGAATAGTGCTAG,1.15
CTAATATTCATTTTATTCAAGTGCTAG,2.03
TTAGGATTGGGACTGGGTTAGTGCTAG,0.0168
TTAGCTCTCGGACTGGGTTAGTGCTAG,-0.517
GATGATATCGGGTATCGAGACGTGCTA,-0.256
TTAGGTCTCGGTTTTGGTTAGTGCTAG,5.8
CTGGCTATTTTATATGCTATGGTGCTA,-0.319
TTAGGTAACGGGTATCGGTTAGTGCTA,0.976
TTAGGTATCGATTTCGGTTAGTGCTAG,5.24
TTAGACATCAGTTTCGATTAGTGCTAG,8.62
TCACTTCTGCCTGTCCAACTGTGCTAG,0.697
TTAGATTTCGGGTTCCGATTAGTGCTA,3.12
TTAGGACTGGGTATCGCTTAGTGCTAG,0.252
TTAGAACTGAGACTGGATTTGTGCTAG,-0.335
TCACTTCTGGGCTGTTTGACTGTGCTA,0.155
ATTTAGTATTACCTATTTCTGTGCTAG,0.71
GTCGGTCTCGGACTGGGGACGTGCTAG,0.542
TCATGCCTATTTTTCCCACTGTGCTAG,0.914

# Series 5
# Target: Prothrombin, mature alpha-thrombin (F2, Homo sapiens, UniProt P00734)
# Technique: aptamer microarray, sandwich
# Form: DNA with 2'F-ANA
# Matrix: in vitro
# Tested at: 200 nM
# Notes: whole 15-mer aptamer, many near background
# With: Cy3 exosite-II aptamer, 400 nM
# Reading: higher = stronger binding
# Oligonucleotide: GGTTGGTGTGGTTGG
Modification,mean fluorescence intensity [a.u.]
2'F-ANA at 2 3 6 7 9 12 14 15,378
2'F-ANA at 3 4 5 6 7 9 11 13 14,48.3
2'F-ANA at 2 3 6 11 15,599
2'F-ANA at 3 4 5 6 7 9 10 13 14,47.4
2'F-ANA at 1 3 8 9 12,653
2'F-ANA at 1 2 5 6 7 10 11 12 13 15,52.6
2'F-ANA at 1 2 3 4 6 13,243
2'F-ANA at 2 4 5 11 15,53.9
2'F-ANA at 2 4 6 8 9 10 11 12 13 14 15,84.1
2'F-ANA at 1 4 5 9 10 11 15,50
2'F-ANA at 2 3 7 10 11 13 14,255
2'F-ANA at 2 3 5 11 12 14 15,57.7
2'F-ANA at 7 9 11 12 13 14,210
2'F-ANA at 4 6 8 10 14 15,65.3
2'F-ANA at 1 5 8 9 10 12 13 14,40.4
2'F-ANA at 1 2 3 5 6 7 8 9 11 15,59.2
2'F-ANA at 5 6 7 10 12,52.5
2'F-ANA at 1 2 6 7 8 9 12,305
2'F-ANA at 3 5 6 8 10 11 14 15,49.1
2'F-ANA at 2 4 5 7 8 9 10 11 12 13 14,65.2
2'F-ANA at 1 4 5 6 8 10 12 13 15,76.7
2'F-ANA at 1 2 7 10 12 13 14 15,49.3
2'F-ANA at 1 3 4 6 7 8 9 10 11 12 14,56.8
2'F-ANA at 1 2 3 4 8 11 12 15,365
2'F-ANA at 4 5 12 15,153

# Series 6
# Target: Fragile X messenger ribonucleoprotein 1, C-terminal low-complexity region (Fmr1, Mus musculus, UniProt P35922)
# Technique: RNA Bind-n-Seq
# Form: RNA
# Matrix: in vitro
# Tested at: 200 nM
# Notes: whole 134-nt RNA, ends assumed
# With: 150 mM KCl
# Relative to: input library
# Reading: higher = stronger binding
# All sequences stand within: GGGAGUUCUACAGUCCGACGAUC … UGGAAUUCUCGGGUGUCAAGG
Oligonucleotide,log2 enrichment
CACAGACAACCCGCACCCACACAGACACAGAGGGAAGGGGUUGGGAUGGGGACAGGGUGCACAGCAGGGCGGGGUAGGACCCCAGCCCCU,1.45
UACCUGAUCAAUGACAGAGCCUUCUGAGGACAUUCCAAGACAGUAUACAGUCCUGUGGUCUCCUUGGAAAUCCGUCUAGUUAACAUUUCA,-1.68
CUCAAGUCCUGUGCUACACAUCGUAUGUACCGAAUCGGGGUGGGGUGGUGGGGAAAGUAUUAUGUUACGCCGUUCGGAUCUGCACUUCCA,1.14
AGUCCUGUGCUACACAUCGUAUGUACCGAAUCGGAAAAAGGAAAAAAAGGAAAAAGGAAAGUAUUAUGUUACGCCGUUCGGAUCUGCACU,-0.796
GCAGGAAGUAAAAACAAAUGGAAAUGCUUCGGAUAGUGGCAGGGGUGGGGGUUGCUAAGGAAAGGGUGGGAUGGGAGAAAGUAAAGAGUU,0.302
ACCAUGCAGGUGGGCAUCUUUGGGAACUGGGGCAAGGGGGGGAUAGGGAGGGGGGUAACACUUUGGGAACAGGUGGUCCCAGGUCGUUUC,0.847
AGUCCUGUGCUACACAUCGUAUGUACCGAAUCGGGGCCCCGGGGCCCCGGCCCCGGGAAAGUAUUAUGUUACGCCGUUCGGAUCUGCACU,-0.264
UGGGAGGUGGAUUUUGUUUAUUUUUUUAGCUCAUUUCCAGGGGUGGGAAUUUUUUUUUAAUAUGUGUCAUGAAUAAAGGUGUUUUUGAAA,0.218
GGGGGUGACCGCCGGAGCGCGGCGUGAGCCCUCCCCCUUGGGAUCCCGCAGCUGACCAGUCGCGCUGACGGACAGACAGACAGACACCGC,-0.695
AGUCCUGUGCUACACAUCGUAUGUACCGAAUCGGGGUUUUGGGGUUUUGGGGUUUUGGAAAGUAUUAUGUUACGCCGUUCGGAUCUGCAC,0.33
CAAGUCCUGUGCUACACAUCGUAUGUACCGAAUCGGGAAAGGAAAGGGGAAAGGGGAAAGUAUUAUGUUACGCCGUUCGGAUCUGCACUU,0.451
AGUCCUGUGCUACACAUCGUAUGUACCGAAUCGGGGAAAGGGGAGGGGUUUUUGGGGAAAGUAUUAUGUUACGCCGUUCGGAUCUGCACU,0.606
UUUGCAGGGAGUGGUACGGGUAUCACUUUCCGGAGCUGGUGAAGAUCAUCAACGACAAUGCCACAUACUGCCGUCUUGCCCAGUUUAUUG,-0.654
UAACUUUACAGGAGGAUCUGAUGGAUAUGGCAGUGGACGUGGAUUUGGGGAUGGCUAUAAUGGGUAUGGAGGAGGACCUGGAGGUGGCAA,0.406

# Other studies, line by line
Molecule,target,test,test system,setting,scale,quantity,result
"PhoQ, residues 284 288 289 292 302 303 SVTLVV","PhoP, residues 12 14 15 18 19 LHHSG (Escherichia coli, UniProt P23836)","Sort-seq, refers to: YFP reporter",E. coli,"PhoQ-PhoP variant library, with: 10 µM Mg2+","relative to: high Mg2+ state, higher = stronger signaling",fold induction,6.38
